Results pooled from the literature.
Compare with care: the assays were run in different laboratories. Numbers after ± are the reported error.
Technique: steady-state kinetics
B1: enzyme C434A (Methanosarcina mazei, UniProt Q8PVB1); chain MSEQRSVPLREHLLALKPCRHGGLIQETSETYGIPENEILDFSANFNPLGSPFDYPENGLNFEDIIKKSCGKLLEYPDNRYVEFREAAARFVGLGVTPQSIVPGNGSTEIVRLVVESVIEKGDKVLLPWPTFGEYEMQCRITGAEPVCPSQEEVNTLPDEVLEEAKILFICNPNNPTGKLRTREELKVLAERCREHKTLLYVDEAFIELSDPSQSVADLPAENNYVFVMRSLTKDFAIPGIRMGFGIAPPAMADILNTARLSWNLGAIANNTGIALLNIEGGIDSPYLKKAREMILKEGETLKAKIDRIRGFEAGEVNVNFILVDVSKFMLNSSELTARLAARGVLVRDCVSFHGLGKNYIRVAVRTEKENDRLIAAIGDVITEWGREQAKNELQHVIEKASEEGIGGRKTCEYYPCHFEGQNCTFCFCPFYPAENEKTGGKWIQSSRGGRVWSCVDCHLVHKKEIAQKILDCLMHEGDTDELVKVAWKEVMEPIL
B2: enzyme I20A (Nitrosopumilus maritimus, UniProt A9A5X4); chain MDSQKFDSIIFDCDGVLVDATQSYDKTIDKTCRYVLKEFAKIDSITIDHKIIDGFKSSGGFNDEVDLVYAAILSLYTANKLNKKPSEFIYDVISNTDKTGIRSVQSYLESIYDVSEFLSKLGSLGDRHNNPVYSIFDQFFFGPELYGKLFDKQSKFSEEGMISNDKVILSVSLLETLQKEFGKKIAVVTGRGIESIRYSLKDMMDYFDTKNSAFLEDEPRELAKPNPATLIRAIQSMESKNCLYVGDSMEDYMMAKDAAQAGHSTTFCAIVGTSTNPEDRRKLFADSGVEMILESINDIPKVLNLV
B3: enzyme E11H/K10H/Q8H (Geobacillus stearothermophilus, UniProt P42328); chain MKAAVVEHFHHPLKIKEVEKPTISYGEVLVRIKACGVCHTDLHAAHGDWPVKPKLPLIPGHEGVGIVEEVGPGVTHLKVGDRVGIPWLYSACGHCDYCLSGQETLCEHQKNAGYSVDGGYAEYCRAAADYVVKIPDNLSFEEAAPIFCAGVTTYKALKVTGAKPGEWVAIYGIGGLGHVAVQYAKAMGLNVVAVDIGDEKLELAKELGADLVVNPLKEDAAKFMKEKVGGVHAAVVTAVSKPAFQSAYNSIRRGGACVLVGLPPEEMPIPIFDTVLNGIKIIGSIVGTRKDLQEALQFAAEGKVKTIIEVQPLEKINEVFDRMLKGQINGRVVLTLEDK
B4: enzyme S252E/S281E/S285E/S287E (Schizosaccharomyces pombe, UniProt P78804); chain MSTPYEPEFQQAYKEIVGSIESSKLFEVHPELKRVLPIISIPERVLEFRVTWEDDKGNCRVNTGYRVQFNSALGPYKGGLRFHPSVNLSILKFLGFEQIFKNALTGLPMGGGKGGSDFDPKGKSDNEIRRFSQAFMRQLFRYIGPQTDVPAGDIGVTGFVVMHMFGEYKRLRNEYSGVVTGKHMLTGGSNIRPEATGYGVVYYVKHMIEHRTKGAETLKGKRVAISGSGNVAQYAALKCIQEGAIVKSISDEKGVLIAKTAEGLVPEEIHEIMALKEKRAEIADEAELCKKHHYIAGARPWTNVGEIDIALPCATQNEVSGEEAAALIKQGCRYVAEGSNMGSSAEAVEVFEKSRASGEGCWLAPGKAANAGGVAVSGLEMAQNAQFSTWTHAEVDAKLAGIMQNIFEQSTDVASKYCDSGSNNIPSLVDGANIAGFLKVATAMQAVGDWW
B5: enzyme (UniProt A0A097IUE6); chain TKRAMMATVSSLGIDKATGITKPSKVHRNLPYPEVFEHEQKNKEGEVTKNGTFCVSTGAFTGRSPKDKYFVHQSPSCDTLDWGKINVGVAPDVYKNIYEKAVKHYNENVDSMYVFDGYCGTSPKSRKNVRIITELAWQHHFAKNMFIRPDSEKEVENFNPDFTIINACKVLNKDYKELGLNSDVAVIFNVEEKMAVITGTWYGGEMKKGIFSMMNYWLPLDGIMAMHCSANKGKGGDTALFFGLSGTGKTTLSADPDRYLIGDDEHGWDDHGIFNFEGGCYAKTVNLSKDNEPEIYDAIKRDALLENVIIKSDGEPDYTDTSRTENTRVSYPIYHIDNHEPSGMGGHPTSIIFLTCDAFGVLPPVSRLSGGQAMYHFLSGYTAKVAGTERGVTEPTPNFSACFGAAFLTLHPTKYADLLQKKLDKHQTQCFLINTGWTGGGYGVGKRMSIKATRACVNAVLDGSINKANFTNDEVFGFEVPAELPEVPAQVLNPRAAWSDKEKYDNTRIKLAGMFKDNFKKFIKEGATDYSSYGPK
B6: enzyme (Populus trichocarpa, UniProt A0A2K1ZZ60); chain ITRQYTFNITHKNFTRLCHTRSLVTVNGQFPGPRLVAREGDQVLVKVVNHVAENITIHWHGVRQLTSGWADGPAYVTQCPIQTGQAYTYNFTITGQRGTLLWHAHISWLRSSLYGPIIILPKLNESYPFKKPYKEIPILFGEWFNVDPEAVIAQALQTGAGPNVSDAYTINGLPGPLYNCSAKDTYKLKVKPGKTYLLRLINAALNDELFFSIANHTLTVVEADAVYVKPFEADTLLISPGQTTNVLLKTKPHLPNATFYMFAGPYFSGMGSFDNSTTAGVLVYKHPSSNNHLKKLPTLKPTLPPINATGFVANFTKKFRSLANAKFPANVPQTVDRKFFFTVGLGTNPCPKNTTCQGPNNNTKFAASINNVSFVLPSVALLQSYFFGQSNGVFTSDFPQNPTIPFNYTGTPPNNTMVSNGTKAVVLTFNTSVELVMQGTSIVAAESHPLHLHGFNFFVVGQGFGNYDPNKDPSNFNLVDPMERNTAGVPAGGWIAIRFLADNPGVWFMHCHLDVHTSWGLRMAWIVLDGPQPNQKIPPPPSDLPKC
B7: aspC A106G/A218G/F210I/I29V/I33V/I68L/I71L/N30D/N64T/S135A/T100S/V136I/V375I (Escherichia coli, UniProt P00509); chain MFENITAAPADPILGLADLFRADERPGKVDLGVGVYKDETGKTPVLTSVKKAEQYLLENETTKTYLGLDGLPEFGRCTQELLFGKGSALINDKRARTAQSPGGTGGLRVAADFLAKNTSVKRVWVSNPSWPNHKAIFNSAGLEVREYAYYDAENHTLDFDALINSLNEAQAGDVVLFHGCCHNPTGIDPTLEQWQTLAQLSVEKGWLPLIDFAYQGFGRGLEEDAEGLRAFAAMHKELIVASSYSKNFGLYNERVGACTLVAADSETVDRAFSQMKAAIRANYSNPPAHGASVVATILSNDALRAIWEQELTDMRQRIQRMRQLFVNTLQEKGANRDFSFIIKQNGMFSFSGLTKEQVLRLREEFGVYAVASGRINVAGMTPDNMAPLCEAIVAVL
B8: gdhA W89F (Thermococcus profundus, UniProt O74024); chain MVEIDPFEMAVKQLERAAQYMDISEEALEWLKKPMRIVEVSVPIEMDDGSVKVFTGFRVQHNWARGPTKGGIRWHPAETLSTVKALATFMTWKVAVVDLPYGGGKGGIIVNPKELSEREQERLARAYIRAVYDVIGPWTDIPAPDVYTNPKIMGWMMDEYETIMRRKGPAFGVITGKPLSIGGSLGRGTATAQGAIFTIREAAKALGIDLKGKKIAVQGYGNAGYYTAKLAKEQLGMTVVAVSDSRGGIYNPDGLDPDEVLKWKREHGSVKDFPGATNITNEELLELEVDVLAPAAIEEVITEKNADNIKAKIVAEVANGPVTPEADDILREKGILQIPDFLCNAGGVTVSYFEWVQNINGYYWTEEEVREKLDKKMTKAFWEVYNTHKDKNIHMRDAAYVVAVSRVYQAMKDRGWVKK
B9: enzyme (Treponema denticola, UniProt Q73LY9); chain QTNGTMPKRKFVIAFHASVNTDKTGKNLIKELPDLQKRGINTLFLEIGYNYQWKSDPKLYNKYVLSETVAREIAAECRRLSIDLIPEINCLGHQSWENETFALLKAYPELDETPGLYPSNKDIYCRSLCSSNEKVYTILFGLIDEITEVFSVKKIHVGLDEVFLIGEDACPLCRGKDKAELFAGAVNRLYDHCVKKRGFTMYMWGDRLIDSEDEDSGYKGEYESSCNGTYPAVDLIPKDIIICDWHYDELERYGSIPYFLNKGFRVLPTSFKGIKAVNALIDYSLLYKDNPAMLGHMYTAWDNFTNKNLSRYKPMVKTIDKLKAGN
Sequence of UniProt P28186 (whole entry, looked up): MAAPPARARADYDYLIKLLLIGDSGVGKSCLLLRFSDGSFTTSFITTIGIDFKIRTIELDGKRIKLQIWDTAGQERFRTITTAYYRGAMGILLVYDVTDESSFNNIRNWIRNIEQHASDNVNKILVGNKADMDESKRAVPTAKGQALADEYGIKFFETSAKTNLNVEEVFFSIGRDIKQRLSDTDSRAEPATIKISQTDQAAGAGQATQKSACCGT
Sequence of UniProt O31986 (whole entry, looked up): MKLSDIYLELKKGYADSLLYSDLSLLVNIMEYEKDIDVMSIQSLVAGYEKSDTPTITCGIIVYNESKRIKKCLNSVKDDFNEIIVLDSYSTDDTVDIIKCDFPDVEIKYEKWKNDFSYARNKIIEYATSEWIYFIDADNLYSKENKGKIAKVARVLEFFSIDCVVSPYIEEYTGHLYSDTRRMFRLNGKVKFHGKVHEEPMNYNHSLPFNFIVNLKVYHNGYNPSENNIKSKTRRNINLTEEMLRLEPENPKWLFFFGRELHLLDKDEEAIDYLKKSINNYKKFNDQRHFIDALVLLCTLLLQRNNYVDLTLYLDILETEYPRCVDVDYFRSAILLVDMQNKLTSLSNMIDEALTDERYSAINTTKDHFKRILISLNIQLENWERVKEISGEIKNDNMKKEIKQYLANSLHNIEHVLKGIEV
Sequence of UniProt P09546 (whole entry, looked up): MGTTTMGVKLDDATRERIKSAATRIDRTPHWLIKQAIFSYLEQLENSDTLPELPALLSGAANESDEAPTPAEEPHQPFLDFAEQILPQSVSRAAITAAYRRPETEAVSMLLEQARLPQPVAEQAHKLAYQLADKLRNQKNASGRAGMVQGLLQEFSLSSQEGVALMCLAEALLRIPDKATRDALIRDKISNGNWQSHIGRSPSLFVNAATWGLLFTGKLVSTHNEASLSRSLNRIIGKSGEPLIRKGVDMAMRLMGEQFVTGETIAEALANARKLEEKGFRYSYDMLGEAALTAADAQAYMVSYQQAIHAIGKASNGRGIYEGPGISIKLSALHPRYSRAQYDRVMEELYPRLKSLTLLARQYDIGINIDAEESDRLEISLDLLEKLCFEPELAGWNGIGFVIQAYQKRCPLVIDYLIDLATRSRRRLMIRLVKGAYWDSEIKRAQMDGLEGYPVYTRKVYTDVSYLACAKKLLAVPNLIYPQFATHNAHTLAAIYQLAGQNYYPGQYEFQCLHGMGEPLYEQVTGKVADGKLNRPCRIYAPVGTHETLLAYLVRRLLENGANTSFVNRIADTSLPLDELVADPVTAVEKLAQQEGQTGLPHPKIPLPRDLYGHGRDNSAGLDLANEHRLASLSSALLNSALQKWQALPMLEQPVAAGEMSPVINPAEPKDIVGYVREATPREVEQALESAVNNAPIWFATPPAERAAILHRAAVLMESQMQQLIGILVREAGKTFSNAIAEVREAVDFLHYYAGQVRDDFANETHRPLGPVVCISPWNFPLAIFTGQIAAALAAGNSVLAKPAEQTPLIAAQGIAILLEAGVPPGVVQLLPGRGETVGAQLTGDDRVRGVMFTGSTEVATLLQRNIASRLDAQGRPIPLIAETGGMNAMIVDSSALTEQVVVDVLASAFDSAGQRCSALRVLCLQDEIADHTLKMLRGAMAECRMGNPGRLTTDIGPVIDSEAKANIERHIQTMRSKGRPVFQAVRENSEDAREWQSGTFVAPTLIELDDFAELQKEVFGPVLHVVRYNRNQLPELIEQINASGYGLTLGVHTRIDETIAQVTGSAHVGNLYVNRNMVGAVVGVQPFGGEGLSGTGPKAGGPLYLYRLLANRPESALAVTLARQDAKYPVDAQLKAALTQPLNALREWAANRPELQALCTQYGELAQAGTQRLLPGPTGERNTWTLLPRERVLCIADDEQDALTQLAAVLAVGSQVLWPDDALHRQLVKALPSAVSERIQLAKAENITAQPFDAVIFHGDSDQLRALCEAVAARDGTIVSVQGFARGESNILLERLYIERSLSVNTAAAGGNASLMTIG
Sequence of UniProt Q96C36 (whole entry, unmodified, looked up): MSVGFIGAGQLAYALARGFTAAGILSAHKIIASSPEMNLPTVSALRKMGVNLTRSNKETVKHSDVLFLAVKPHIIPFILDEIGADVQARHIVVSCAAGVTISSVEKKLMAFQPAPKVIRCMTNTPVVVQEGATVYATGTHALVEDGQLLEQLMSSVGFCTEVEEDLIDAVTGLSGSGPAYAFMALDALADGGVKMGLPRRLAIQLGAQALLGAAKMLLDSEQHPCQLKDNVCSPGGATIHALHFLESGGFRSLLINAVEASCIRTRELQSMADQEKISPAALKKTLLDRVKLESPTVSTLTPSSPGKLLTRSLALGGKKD
Sequence of UniProt P26208 (whole entry, looked up): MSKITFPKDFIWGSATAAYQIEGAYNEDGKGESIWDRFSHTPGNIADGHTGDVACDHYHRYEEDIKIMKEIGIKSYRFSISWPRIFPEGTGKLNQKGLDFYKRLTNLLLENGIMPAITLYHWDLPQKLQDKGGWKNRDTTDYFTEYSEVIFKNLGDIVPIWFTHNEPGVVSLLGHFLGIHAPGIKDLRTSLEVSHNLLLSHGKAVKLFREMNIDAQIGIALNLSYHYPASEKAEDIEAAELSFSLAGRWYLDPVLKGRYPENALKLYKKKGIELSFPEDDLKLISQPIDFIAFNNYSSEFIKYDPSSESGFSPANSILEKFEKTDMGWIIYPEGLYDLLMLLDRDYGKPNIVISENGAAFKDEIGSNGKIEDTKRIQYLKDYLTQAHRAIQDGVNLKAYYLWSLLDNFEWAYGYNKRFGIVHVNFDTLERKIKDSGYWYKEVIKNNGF

Molecule | substrate | pH | temperature | notes | together with | kcat [s⁻¹]
spt R378K (Sphingomonas paucimobilis) | CCCCCCCCCCCCCCCC(=O)SCCNC(=O)CCNC(=O)[C@H](O)C(C)(C)COP(=O)(O)OP(=O)(O)OC[C@H]1O[C@@H](n2cnc3c(N)ncnc32)[C@H](O)[C@@H]1OP(=O)(O)O | – | – | – | PLP | 0.12 ± 0.02
B1 (enzyme C434A) | Nc1ncnc2c1ncn2[C@@H]1O[C@H](COP(=O)(O)OP(=O)(O)OP(=O)(O)O)[C@@H](O)[C@H]1O | pH 8.5 | 25 °C | apparent, anoxic | L-Thr 10 mM | 0.127 ± 0.004
B2 (enzyme I20A) | N[C@H](COP(=O)(O)O)Cc1c[nH]cn1 | pH 7.8 | 25 °C | – | – | 0.088 ± 0.004
bglA (Acetivibrio thermocellus, UniProt P26208) | O=[N+]([O-])c1ccc(O[C@@H]2OC[C@H](O)[C@H](O)[C@H]2O)cc1 | pH 5.5 | 60 °C | – | – | 5.02 ± 0.13
B3 (enzyme E11H/K10H/Q8H) | NC(=O)c1ccc[n+]([C@@H]2O[C@H](COP(=O)(O)OP(=O)(O)OC[C@H]3O[C@@H](n4cnc5c(N)ncnc54)[C@H](O)[C@@H]3O)[C@@H](O)[C@H]2O)c1 | pH 8 | – | apparent, cofactor varied | – | 13.31 ± 0.02
B4 (enzyme S252E/S281E/S285E/S287E) | NC(=O)C1=CN([C@@H]2O[C@H](COP(=O)(O)OP(=O)(O)OC[C@H]3O[C@@H](n4cnc5c(N)ncnc54)[C@H](OP(=O)(O)O)[C@@H]3O)[C@@H](O)[C@H]2O)C=CC1 | pH 7 | 30 °C | apparent | – | 14 ± 1
enzyme (UniProt A0A063Y6V3) | NC(=O)C1=CN([C@@H]2O[C@H](COP(=O)(O)OP(=O)(O)OC[C@H]3O[C@@H](n4cnc5c(N)ncnc54)[C@H](O)[C@@H]3O)[C@@H](O)[C@H]2O)C=CC1 | pH 7 | 30 °C | cofactor varied | – | 0.31 ± 0.021
B5 (enzyme) | O=C(O)CC(=O)C(=O)O | pH 7.5 | 25 °C | – | – | 63.5 ± 0.9
enzyme (Thermothielavioides terrestris, UniProt G2R650) | C=Cc1ccc(O)c(OC)c1 | pH 8 | 45 °C | – | – | 4.63 ± 0.385
B6 (enzyme) | COc1cc(/C=C/CO)cc(OC)c1O | – | 27 °C | – | – | 4.33 ± 0.53
enzyme (Bacillus subtilis, UniProt O31986) | O=c1ccn([C@@H]2O[C@H](CO[P@@](=O)(O)O[P@@](=O)(O)O[C@H]3O[C@H](CO)[C@@H](O)[C@H](O)[C@H]3O)[C@@H](O)[C@H]2O)c(=O)[nH]1 | pH 7.5 | – | – | SunA | 0.88 ± 0.08
acsA I222V/L233M (Pseudomonas chlororaphis) | O=C(O)CCC(F)(F)F | pH 7 | – | – | – | 0.0367 ± 0.00333
RABE1C (Arabidopsis thaliana, UniProt P28186) | Nc1nc2c(ncn2[C@@H]2O[C@H](COP(=O)(O)OP(=O)(O)OP(=O)(O)O)[C@@H](O)[C@H]2O)c(=O)[nH]1 | pH 7.5 | 30 °C | – | – | 0.029
B7 | N[C@@H](CC(=O)O)C(=O)O | pH 7.5 | 25 °C | – | PLP 20 µM | 51
putA (Escherichia coli, UniProt P09546) | COC1=C(OC)C(=O)C(C/C=C(\C)CCC=C(C)C)=C(C)C1=O | pH 7.4 | 20 °C | – | proline 200 mM | 1.4 ± 0.1
B8 (gdhA W89F) | NC(=O)c1ccc[n+]([C@@H]2O[C@H](COP(=O)(O)OP(=O)(O)OC[C@H]3O[C@@H](n4cnc5c(N)ncnc54)[C@H](OP(=O)(O)O)[C@@H]3O)[C@@H](O)[C@H]2O)c1 | pH 7.5 | 20 °C | per site | – | 0.0733 ± 0.0003
gdh E198C (Bacillus subtilis) | NC(=O)c1ccc[n+]([C@@H]2O[C@H](COP(=O)(O)OP(=O)(O)OC[C@H]3O[C@@H](n4cnc5c(N)ncnc54)[C@H](O)[C@@H]3O)[C@@H](O)[C@H]2O)c1 | pH 8 | 45 °C | – | – | 28.4 ± 1.31
HNL C81L/E79H/G176S/H103V/K236M/N104A/S105A/T11G/V106F (Hevea brasiliensis) | CC(=O)Oc1ccc([N+](=O)[O-])cc1 | pH 7.2 | 22 °C | – | – | 0.135 ± 0.00667
enzyme (Salmonella enterica, UniProt P0A2K1) | N[C@@H](CO)C(=O)O | pH 7.8 | 22 °C | apparent | – | 4.23 ± 0.4
B9 (enzyme) | CC(=O)N[C@H]1[C@H](Oc2ccc([N+](=O)[O-])cc2)O[C@H](CO)[C@@H](O)[C@@H]1O[C@@H]1O[C@H](CO)[C@H](O)[C@H](O)[C@H]1O | pH 6 | 40 °C | – | – | 0.45 ± 0.03
PYCR2 (Homo sapiens, UniProt Q96C36) | O=C(O)[C@@H]1CCC=N1 | pH 7.5 | 37 °C | apparent | NADH 500 µM | 61.3 ± 1.4

For quick reference, copied from above:
Molecule | substrate | pH | temperature | notes | together with | kcat [s⁻¹]
B5 (enzyme) | O=C(O)CC(=O)C(=O)O | pH 7.5 | 25 °C | – | – | 63.5 ± 0.9
gdh E198C (Bacillus subtilis) | NC(=O)c1ccc[n+]([C@@H]2O[C@H](COP(=O)(O)OP(=O)(O)OC[C@H]3O[C@@H](n4cnc5c(N)ncnc54)[C@H](O)[C@@H]3O)[C@@H](O)[C@H]2O)c1 | pH 8 | 45 °C | – | – | 28.4 ± 1.31
spt R378K (Sphingomonas paucimobilis) | CCCCCCCCCCCCCCCC(=O)SCCNC(=O)CCNC(=O)[C@H](O)C(C)(C)COP(=O)(O)OP(=O)(O)OC[C@H]1O[C@@H](n2cnc3c(N)ncnc32)[C@H](O)[C@@H]1OP(=O)(O)O | – | – | – | PLP | 0.12 ± 0.02
